Experimental data gathered from unrelated publications.
Parts stem from different laboratories: compare values within a part only. Substitutions count along the parent as printed.

Study 1 — target: CCND1, cyclin fold, Cln2 fusion (human); method: yeast growth competition, sequencing; matrix: yeast; setting: strong parent motif; relative to: not given; reading: higher = stronger binding; starting sequence: viral docking peptide; YKVKRRLVFGADD
| Substitution | normalised enrichment score |
| --- | --- |
| YKVKRRLVVGADD [F9V] | -0.0538 |
| YKVKRRLVFGAMD [D12M] | 1.2 |
| YKVCRRLVFGADD [K4C] | 4.27 |
| YKVKRRLVAGADD [F9A] | -0.625 |
| YKVKRRLVFGAHD [D12H] | 0.594 |
| YKFKRRLVFGADD [V3F] | 0.734 |
| YKVKRRLVDGADD [F9D] | 0.253 |
| YKVKRRYVFGADD [L7Y] | -0.107 |
| YKVKRRLVFYADD [G10Y] | 1.03 |
| YKVKRRLVFGAND [D12N] | 1.48 |
| YKVKCRLVFGADD [R5C] | 0.514 |
| YKVKRRIVFGADD [L7I] | 1.72 |
| YKVKRRLVFGAWD [D12W] | 0.37 |
| YKVKRQLVFGADD [R6Q] | 1.5 |
| YKVKRRLDFGADD [V8D] | 4.71 |
| YKVKRRLIFGADD [V8I] | 1.81 |
| YHVKRRLVFGADD [K2H] | 2.08 |
| YKYKRRLVFGADD [V3Y] | 0.199 |

Study 2 — method: RNA Bind-n-Seq; molecule type: RNA; matrix: in vitro; concentration: 20 nM; setting: 6-mer, flanks averaged, single round; together with: 150 mM LiCl; relative to: input library; reading: higher = stronger binding
Target: TAR DNA-binding protein 43, full length, His tag (TARDBP, Homo sapiens, UniProt Q13148, residues 1-414)
| Oligonucleotide | 6-mer enrichment (R) |
| --- | --- |
| GGCUGG | 1.17 |
| CAUUUG | 1 |
| AGAUGA | 0.904 |
| AGGCUA | 0.866 |
| GAGGUC | 0.954 |
| UGUGUA | 1.66 |
| GGUCCA | 0.903 |
| AAGAAU | 0.992 |

Study 3 — target: JUN, bZIP domain (human); method: DHFR protein complementation; matrix: yeast; relative to: wild-type JUN-FOS pair; reading: higher = stronger binding
Setting: single substitutions, most at no-binding floor
Starting sequence: JUN, bZIP domain (human); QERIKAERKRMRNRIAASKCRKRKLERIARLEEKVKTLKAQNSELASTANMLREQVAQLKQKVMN; partner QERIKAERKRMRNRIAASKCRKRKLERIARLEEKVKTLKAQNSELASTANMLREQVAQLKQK
| Substitution | binding fitness [natural log] |
| --- | --- |
| E32V | -0.44 |
| L52Y | -0.795 |
| A57E | -0.0219 |
| S47R | -0.0849 |
| A40E | -0.132 |
| K36D | -0.432 |
| T48C | -0.411 |
| M51L | -0.178 |

Study 4 — method: RNA Bind-n-Seq; molecule type: RNA; matrix: in vitro; concentration: 100 nM; relative to: input RNA pool; reading: higher = stronger binding
Target: RING finger protein unkempt homolog, zinc fingers 1-6, SBP tag (UNK, Homo sapiens, UniProt Q9C0B0, residues 30-357)
Chain of UniProt Q9C0B0 (30-357, looked up): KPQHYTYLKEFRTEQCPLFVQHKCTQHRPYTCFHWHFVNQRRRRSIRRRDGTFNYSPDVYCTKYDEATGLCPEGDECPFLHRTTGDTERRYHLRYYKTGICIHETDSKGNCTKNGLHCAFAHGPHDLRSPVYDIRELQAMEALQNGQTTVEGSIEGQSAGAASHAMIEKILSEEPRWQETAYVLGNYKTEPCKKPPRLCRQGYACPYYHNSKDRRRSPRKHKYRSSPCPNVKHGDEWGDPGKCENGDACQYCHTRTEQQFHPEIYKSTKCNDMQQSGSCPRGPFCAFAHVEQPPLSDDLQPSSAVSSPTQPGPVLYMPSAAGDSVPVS
Setting: RNA with constant flanks, vertebrate orthologous sites, ends assumed
| Oligonucleotide | bound/input enrichment |
| --- | --- |
| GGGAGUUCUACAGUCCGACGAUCAAGAUGGUGGUUGUACAUUAUUUCAUUUAGAAAAUAUAAAAAUUCAUUUUGUUUUGAAGCUAGGUGUUAAACUGGAAUAGCUCUUAUACCCCAGAGAAUGGGGCAGUUGCGCCCUUCCCUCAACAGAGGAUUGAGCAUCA | 2.19 ratio |
| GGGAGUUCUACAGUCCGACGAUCCCUCCUGAACUUCUCUUGCUUUCAGGCUGUGGCUGUUUCAGAUACUGGUUUUAUUUUCUUUGCAGUUUUCCCCUGUCCCACCUUUCUCCCCUCCUUUCCAAGGUUUGACUCAUGGAUUGUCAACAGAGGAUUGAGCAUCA | 1.51 ratio |
| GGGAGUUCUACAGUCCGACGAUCAUCAUAGCAGAAGAGCCAAGCAGUAGCAUUGGUGGUUUUUUUCUUUUGUAAAUGUAAAAUUAGAUCCAGACUUUGUUUCCUUAUUCAAUUUUAAAAAUAAAAAAAAUACCUCAGUGCUAUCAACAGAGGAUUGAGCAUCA | 0.431 ratio |
| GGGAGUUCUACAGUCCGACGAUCCCCCCCUGAACCCCAUAUCUUCUGUUUCAUAGUGCAGAGUAUUCUCUUCAAUUAUGUUAUUAGUGGACUUGUUUUAAUUUUAGGGAAACUUUCAGUACAGAUACUGUGAGCUUACAUGGACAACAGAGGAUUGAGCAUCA | 1.22 ratio |
| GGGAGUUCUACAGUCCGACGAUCCCGCAUUAGCACCCUGCCAGCCCAGCAAUCUCUCUGUGCACAGCUUCAAAUGUUAUGGUCUAGCUAGAUUUUUAUUUAAAAUAUGAAAAACUGCUUUUCCCAAGACAUUUUUUAAAGAAACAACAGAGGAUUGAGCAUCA | 0.478 ratio |
| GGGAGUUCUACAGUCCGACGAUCAUCCCUCAGUGACAGUAUGCCAUCUGUAGCAGAUUCCCACUCUAGUCAUUUUUCUGAAUUUAGUUGUUCUGAUCUAGAAAGCAUGAAAACUUCUUGCAGCCAUGGUUCCAGUGAUUAUCACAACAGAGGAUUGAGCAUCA | 1.98 ratio |
| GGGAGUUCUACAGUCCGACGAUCAAAUUUAUUUUAUGCCCUGGACUCCCUACCGCACCGAUACUUUGAUAGAAUAUGCUUCUAUAGAAGACUUUCAAAACAGCCGCCAGACAACAACAUACAAACUUCCGAAUCGAGUAGAUGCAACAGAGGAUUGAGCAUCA | 1.23 ratio |
| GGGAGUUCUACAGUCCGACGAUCUUGGGAGCAGUUCUCCAAAUAGAAAUAGUAAUAAAAAAACCAAACAAAAUGAUAUUUGUGUAGACAAAACAGAAUUUAAAUCAUGGAAAGUAAAUGCUGCCAGUAUUCCAGGUCCUAAAGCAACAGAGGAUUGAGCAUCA | 2.76 ratio |

Further values, each from its own experiment
| Sequence | target | effect on | molecule type | concentration | quantity | value |
| --- | --- | --- | --- | --- | --- | --- |
| ILNRETLLDFV | HLA class I histocompatibility antigen, C alpha chain, allele C*04:01 (Homo sapiens, UniProt P10321) | peptide-MHC binding | peptide | concentration not given | binding | inactive |

Excerpt of the above (study 3):
| Substitution | binding fitness [natural log] |
| --- | --- |
| E32V | -0.44 |
| M51L | -0.178 |
| A40E | -0.132 |
